{"data": "Assay results of several laboratories", "note": "Lines come from different studies, so protocols differ."}
{"SMILES": "O=C(O)c1ccc(/C=C2\\SC(=S)N(Cc3cccc(C(F)(F)F)c3)C2=O)cc1", "system": "C57BL/6 mouse, blood", "conditions": "intravenous, 5 mg/kg", "clearance": "14.6 mL/min/kg"}
{"SMILES": "COC1C(c2ccc(Cl)c(Cc3ccc(OC4CCOC4)cc3)c2)OC(CO)C(O)C1O (stereo not shown)", "system": "CD-1 mouse, plasma", "conditions": "intravenous, 5 mg/kg", "clearance": "5.95 mL/min/kg"}
{"SMILES": "CCC1(CC)CC(=O)N(C2CCOc3ccc(C(=O)NC4CC(C)(C)Oc5ccccc54)cc32)C(=N)N1 (stereo not shown)", "system": "male C57BL/6 mouse, plasma", "conditions": "intravenous, 2 mg/kg", "clearance": "42.4 mL/min/kg"}
{"SMILES": "Cc1cc(C(=O)N[C@@H](CC(=O)NC(C)(C)C)C(=O)NCCNC(=O)c2cccc(-n3cccn3)c2)no1", "system": "mouse, plasma", "conditions": "intravenous, 0.1 mg/kg", "clearance": "136 mL/min/kg"}
{"SMILES": "C/C(N)=N/C(=N\\S(=O)(=O)c1ccc(C(F)(F)F)cc1)N1C[C@H](c2ccccc2)C(c2ccc(Cl)cc2)=N1", "system": "male C57BL/6 mouse, plasma", "conditions": "intravenous, 5 mg/kg", "clearance": "12 mL/min/kg"}
{"SMILES": "Cc1cc(C(=O)N[C@@H](CC(=O)NC(C)(C)C)C(=O)NCCNC(=O)c2cccc(-c3cc[nH]n3)c2)no1", "system": "mouse, plasma", "conditions": "intravenous, 0.1 mg/kg", "clearance": "133 mL/min/kg"}
{"SMILES": "CC[C@H](C)[C@H](NC(=O)[C@H](Cc1ccccc1)NC(=O)[C@H](CCC(=O)O)NC(=O)[C@H](CCCCN)NC(=O)[C@H](C)NC(=O)[C@H](C)NC(=O)[C@H](CCC(N)=O)NC(=O)CNC(=O)[C@H](CCC(=O)O)NC(=O)[C@H](CC(C)C)NC(=O)[C@H](Cc1ccc(O)cc1)NC(=O)[C@H](CO)NC(=O)[C@H](CO)NC(=O)[C@@H](NC(=O)[C@H](CC(=O)O)NC(=O)[C@H](CO)NC(=O)[C@@H](NC(=O)[C@H](Cc1ccccc1)NC(=O)[C@@H](NC(=O)CNC(=O)[C@H](CCC(=O)O)NC(=O)[C@H](C)NC(=O)[C@@H](N)Cc1c[nH]cn1)[C@@H](C)O)[C@@H](C)O)C(C)C)C(=O)N[C@@H](C)C(=O)N[C@@H](Cc1c[nH]c2ccccc12)C(=O)N[C@@H](CC(C)C)C(=O)N[C@H](C(=O)N[C@@H](CCCNC(=N)N)C(=O)NCC(=O)N[C@@H](CCCNC(=N)N)C(=O)NCC(=O)O)C(C)C", "system": "male CD-1 mouse, plasma", "conditions": "intravenous, 1 mg/kg, single dose", "clearance": "153 mL/min/kg"}
{"SMILES": "COc1cnc2cccc(N3CCc4c(cc(Cn5ccnc5)cc4-c4cn(C)nc4C(F)(F)F)C3=O)c2c1", "system": "male CD-1 mouse, plasma", "conditions": "intravenous, 3 mg/kg", "clearance": "25 mL/min/kg"}
{"SMILES": "COC(=O)C1=CNC=C(C(=O)OC)C1c1ccc(F)c(C(F)(F)F)c1", "system": "male C57BL/6 mouse, plasma", "conditions": "intravenous, 2 mg/kg", "clearance": "25.4 mL/min/kg"}
{"SMILES": "CC(C)NC(=O)NC1CC=C(c2cc3c(Nc4cc5ncsc5cc4F)ncnc3s2)CC1 (racemic)", "system": "mouse, plasma", "conditions": "intravenous, 10 mg/kg", "clearance": "0.6 mL/min/kg"}
{"SMILES": "Cc1cc(NCC(=O)C(C)C)c2nc(N3CCOC[C@H]3C)cc(=O)n2c1", "system": "C57BL/6 mouse, plasma", "conditions": "intraperitoneal, 10 mg/kg, single dose", "clearance": "59.8 mL/min/kg"}
{"SMILES": "O=C(NCCCCc1ccccc1)n1c(=O)oc2cc(-c3ccc(F)cc3)ccc21", "system": "CD-1 mouse, plasma", "conditions": "intraperitoneal, 10 mg/kg", "clearance": "17.6 mL/min/kg"}
{"SMILES": "CCC(=O)N1CCC=C(c2cc3c(Nc4cc5ncsc5cc4F)ncnc3s2)C1", "system": "mouse, plasma", "conditions": "intravenous, 10 mg/kg", "clearance": "0.77 mL/min/kg"}
{"SMILES": "COc1cc(OCCN2CCOCC2)cnc1-c1nc2cc(OC(F)(F)F)ccc2[nH]1", "system": "mouse, plasma", "conditions": "intraperitoneal, 100 mg/kg", "clearance": "2.74 mL/min"}
{"SMILES": "Cc1ncsc1-c1ccc(CNC(=O)[C@@H]2C[C@@H](O)CN2C(=O)[C@@H](NC(=O)COCC(C)(COCCOCCOCCNC(=O)C[C@@H]2N=C(c3ccc(Cl)cc3)c3c(sc(C)c3C)-n3c(C)nnc32)COCCOCCOCCNC(=O)C[C@@H]2N=C(c3ccc(Cl)cc3)c3c(sc(C)c3C)-n3c(C)nnc32)C(C)(C)C)cc1", "system": "male C57BL/6 mouse, plasma", "conditions": "intravenous, 5 mg/kg, single dose", "clearance": "3.02 mL/min/kg"}
{"SMILES": "CCC(=O)NC1CC=C(c2cc3c(Nc4cc5ncsc5cc4F)ncnc3s2)CC1 (racemic)", "system": "mouse, plasma", "conditions": "intravenous, 10 mg/kg", "clearance": "0.46 mL/min/kg"}
{"note": "For quick reference, copied from above:"}
{"SMILES": "C/C(N)=N/C(=N\\S(=O)(=O)c1ccc(C(F)(F)F)cc1)N1C[C@H](c2ccccc2)C(c2ccc(Cl)cc2)=N1", "system": "male C57BL/6 mouse, plasma", "conditions": "intravenous, 5 mg/kg", "clearance": "12 mL/min/kg"}
{"SMILES": "COC1C(c2ccc(Cl)c(Cc3ccc(OC4CCOC4)cc3)c2)OC(CO)C(O)C1O (stereo not shown)", "system": "CD-1 mouse, plasma", "conditions": "intravenous, 5 mg/kg", "clearance": "5.95 mL/min/kg"}
